# Experimental data from different studies.
# Protocols differ between the studies behind these lines.
# Organism: Staphylococcus aureus
Compound,assay,system,setting,MIC
C=C1NC(=O)C2CSCC3NC(=O)C(CSC(C)C(NC(=S)C(Cc4cnc[nH]4)NC(=O)c4csc(C(C)NC(C)=O)n4)C(=O)N[C@H](CC(C)C(=O)NC(=O)CC(C(=O)O)NC(=O)C(C)NC3=O)C(=O)N2)NC(=O)[C@@H]2CCCN2C(=O)[C@@H](CC(C)C)NC1=O (stereo partly drawn),bacterial growth,NCTC 8325,,> 32 µg/mL
CCCCCCCC[C@@H]1NC(=O)[C@@H](CCCN)NC(=O)[C@@H](NC(=O)[C@@H](NC(=O)[C@@H](CCC(=O)O)NC(=O)[C@H](CC(C)C)NC(=O)[C@@H]2CSC([C@@H](N)[C@@H](C)CC)=N2)[C@@H](C)CC)CCCCNC(=O)[C@H](CC(N)=O)NC(=O)[C@@H](CC(=O)O)NC(=O)[C@H](Cc2c[nH]cn2)NC(=O)[C@@H](Cc2ccccc2)NC1=O,broth microdilution,"ATCC 29213, LB medium",no added Zn2+,0.5 µg/mL
CC(C)CCCCCCCCC/C=C/C(=O)N[C@@H](CC(N)=O)C(=O)N[C@H]1CNC(=O)[C@@H]2CCCN2C(=O)[C@H](C(C)C)NC(=O)[C@@H](CN)NC(=O)CNC(=O)[C@H](CC(=O)O)NC(=O)CNC(=O)[C@H](CC(=O)O)NC(=O)[C@H](CC(=O)O)NC(=O)[C@H]2CCCCN2C1=O,broth microdilution,"VISA LIM strain 2, Mueller-Hinton broth, Mg2+ 10 mg/L","16 h, added: Ca2+ 10 mM",2 µg/mL
CC[C@H](C)[C@H](NC(=O)[C@H](CCCNC(=N)N)NC(=O)[C@@H](NC(=O)[C@@H]1CCCN1C(=O)[C@H](CCCNC(=N)N)NC(=O)[C@@H](NC(=O)[C@@H]1CCCN1C(=O)[C@H](CC(C)C)NC(=O)[C@H](CC(C)C)NC(=O)CNC(=O)[C@H](Cc1c[nH]cn1)NC(=O)[C@@H]1CCCN1C(=O)CNC(=O)[C@H](Cc1ccccc1)NC(=O)[C@H](CC(=O)O)NC(=O)[C@H](Cc1c[nH]c2ccccc12)NC(=O)[C@H](C)NC(=O)[C@@H](NC(=O)[C@H](C)N)[C@@H](C)O)[C@@H](C)CC)[C@@H](C)CC)C(=O)N[C@@H](CCCNC(=N)N)C(=O)N1CCC[C@H]1C(=O)N[C@@H](CC(C)C)C(=O)N[C@@H](CS)C(=O)NCC(=O)N[C@@H](CCCCN)C(=O)N[C@@H](CC(=O)O)C(=O)O,broth microdilution,"ATCC 29213, Mueller-Hinton broth","16 to 20 h, 37 °C",1120 µg/mL
c1ccc(CCNC2CCCc3c2[nH]c2ccc(C4CCCCC4)cc32)cc1 (stereo not drawn),"microbial growth, broth dilution",MRSA USA300,,4 µg/mL
CC[C@H](C)[C@H](NC(=O)[C@H](CCCCN)NC(=O)[C@@H](NC(=O)[C@@H](NC(=O)[C@H](CC(C)C)NC(=O)[C@H](CCCNC(=N)N)NC(=O)[C@@H](NC(=O)[C@H](CC(C)C)NC(=O)[C@H](CCCNC(=N)N)NC(=O)CNC(=O)[C@H](Cc1ccccc1)NC(=O)[C@@H](N)CCCNC(=N)N)[C@@H](C)CC)[C@@H](C)CC)C(C)C)C(=O)N[C@@H](C)C(=O)N[C@@H](CCCNC(=N)N)C(=O)N[C@@H](CCCNC(=N)N)C(=O)N[C@@H](C)C(=O)N[C@@H](Cc1c[nH]cn1)C(=O)N[C@@H](CCCNC(=N)N)C(=O)N[C@@H](C)C(=O)N[C@@H](CCCNC(=N)N)C(=O)N[C@@H](CO)C(=O)N[C@@H](C)C(=O)N[C@H](C(=O)N[C@@H](CCCCN)C(=O)N[C@@H](C)C(=O)N[C@@H](C)C(=O)N[C@@H](CO)C(=O)N[C@@H](CC(N)=O)C(=O)N[C@H](C(=O)N[C@@H](C)C(=O)N[C@@H](C)C(=O)N[C@@H](CC(C)C)C(=O)N[C@@H](C)C(=O)N[C@@H](Cc1c[nH]cn1)C(=O)NCC(=O)N[C@@H](C)C(=O)O)C(C)C)C(C)C,broth microdilution,,"18 h, 37 °C",1.03 µM
COc1cccc(OC)c1C(=O)N[C@@H]1C(=O)N2[C@@H]1SC(C)(C)[C@@H]2C(=O)O,,clinical isolate,"18 to 20 h, 37 °C",> 128 µM
c1ccc(CN2CCOCCOCCN(CCCCCCCCCCN3CCOCCOCCN(CCCCCCCCCCN4CCOCCOCCN(Cc5ccccc5)CCOCCOCC4)CCOCCOCC3)CCOCCOCC2)cc1,,1199B (NorA overexpressing),,16 µM
CC1CCN(C(=O)c2cccc(NC(=O)Nc3ccccc3)c2)CC1,"checkerboard, refers to: ceftobiprole","CRB, PBP4 overexpressor",25 µM,> 64 µg/mL
COc1ccc2ccc(O)c(/C=N/[C@H]3CCCC[C@H]3/N=C/c3cccc(OC)c3O)c2c1,"bacterial growth, broth microdilution",vancomycin-intermediate,,> 40 µM
CC[C@H](C)[C@H](NC(=O)[C@@H](CCCNC(=N)N)NC(=O)[C@H](CCCNC(=N)N)NC(=O)[C@@H]1CCCN1C(=O)[C@@H]1CCCN1C(=O)[C@H](CCCCNC(=N)N)NC(=O)[C@@H]1CCCN1C(=O)[C@H](CCCNC(=N)N)NC(=O)[C@@H]1CCCN1C(=O)[C@H](CC(C)C)NC(=O)[C@H](Cc1ccc(O)cc1)NC(=O)[C@@H]1CCCN1C(=O)[C@@H]1CCCN1C(=O)[C@H](CCCCN)NC(=O)[C@H](CC(=O)O)NC(=O)[C@@H](N)C(C)C)C(=O)N[C@@H](Cc1ccc(O)cc1)C(=O)N[C@@H](CC(N)=O)C(=O)N[C@H](CCCNC(=N)N)C(N)=O,broth microdilution,DSM 6247,"18 h, 37 °C, 25% MHB2",64 µg/mL
CN[C@H](CC(C)C)C(=O)N[C@H]1C(=O)N[C@@H](CC(N)=O)C(=O)N[C@H]2C(=O)N[C@H]3C(=O)N[C@H](C(=O)N[C@H](C(=O)NCc4cn(CC(=O)N[C@H](C(=O)N[C@@H](CCN)C(=O)N[C@H]5CCNC(=O)[C@H]([C@@H](C)O)NC(=O)[C@H](CCN)NC(=O)[C@H](CCN)NC(=O)[C@H](CC(C)C)NC(=O)[C@@H](CC(C)C)NC(=O)[C@H](CCN)NC5=O)[C@@H](C)O)nn4)c4cc(O)cc(O)c4-c4cc3ccc4O)[C@H](O)c3ccc(c(Cl)c3)Oc3cc2cc(c3O[C@@H]2O[C@H](CO)[C@@H](O)[C@H](O)[C@H]2O[C@H]2C[C@](C)(N)[C@H](O)[C@H](C)O2)Oc2ccc(cc2Cl)[C@H]1O,broth microdilution,"VISA NRS402, tryptic soy broth","20 to 24 h, 37 °C, 0.002% polysorbate 80",16 µg/mL
CC[C@H](C)[C@H](NC(=O)[C@@H](CCCNC(=N)N)NC(=O)[C@H](CCCNC(=N)N)NC(=O)[C@@H]1CCCN1C(=O)[C@@H]1CCCN1C(=O)[C@H](CCCNC(=N)N)NC(=O)[C@@H]1CCCN1C(=O)[C@H](CCCNC(=N)N)NC(=O)[C@@H]1CCCN1C(=O)[C@H](CC(C)C)NC(=O)[C@H](Cc1ccc(O)cc1)NC(=O)[C@H](Cc1ccc(O)cc1)NC(=O)[C@@H]1CCCN1C(=O)[C@H](CCCCN)NC(=O)[C@H](CC(=O)O)NC(=O)[C@@H](N)C(C)C)C(=O)N[C@@H](Cc1ccc(O)cc1)C(=O)N[C@@H](CC(N)=O)C(=O)N[C@H](CCCNC(=N)N)C(N)=O,broth microdilution,DSM 6247,"18 h, 37 °C, 25% MHB2",> 128 µg/mL
CC(C)C[C@@H](NC(=O)[C@@H](CCCNC(=N)N)NC(=O)[C@H](N)CCCNC(=N)N)C(=O)N[C@H](CC(C)C)C(=O)N[C@H](CCCNC(=N)N)C(=O)N[C@H](CCCCN)C(=O)N[C@H](CC(C)C)C(=O)N[C@H](CCCCN)C(=O)NCC(=O)N[C@H](CCCCN)C(=O)N[C@H](CCCCN)C(=O)N[C@H](CC(C)C)C(=O)N[C@H](Cc1ccc(O)cc1)C(=O)N[C@H](CC(C)C)C(=O)N[C@H](Cc1ccc(O)cc1)C(=O)N[C@H](Cc1ccccc1)C(=O)N[C@H](CCCCN)C(=O)N[C@H](CC(C)C)C(=O)N[C@H](CCC(N)=O)C(=O)N[C@H](CC(C)C)C(=O)N[C@H](CC(C)C)C(=O)N[C@H](CCCCN)C(=O)N[C@H](CCCCN)C(N)=O,,"CCARM 3089, methicillin-resistant, Mueller-Hinton broth",24 h,4 µM
CN[C@H](CC(C)C)C(=O)N[C@H]1C(=O)N[C@@H](CC(N)=O)C(=O)N[C@H]2C(=O)N[C@H]3C(=O)N[C@H](C(=O)N[C@H](C(=O)N[C@@H](CCCNC(=N)N)C(N)=O)c4cc(O)cc(O)c4-c4cc3ccc4O)[C@H](O)c3ccc(c(Cl)c3)Oc3cc2cc(c3O[C@@H]2O[C@H](CO)[C@@H](O)[C@H](O)[C@H]2O[C@H]2C[C@](C)(NCc3ccc(OCc4cn(CC(=O)N[C@H](C(=O)N[C@@H](CCN)C(=O)N[C@H]5CCNC(=O)[C@H]([C@@H](C)O)NC(=O)[C@H](CCN)NC(=O)[C@H](CCN)NC(=O)[C@H](CC(C)C)NC(=O)[C@@H](CC(C)C)NC(=O)[C@H](CCN)NC5=O)[C@@H](C)O)nn4)c(OC)c3)[C@H](O)[C@H](C)O2)Oc2ccc(cc2Cl)[C@H]1O,broth microdilution,"VISA NRS402, tryptic soy broth","20 to 24 h, 37 °C, 0.002% polysorbate 80",4 µg/mL

# For quick reference, copied from above:
Compound,assay,system,setting,MIC
CN[C@H](CC(C)C)C(=O)N[C@H]1C(=O)N[C@@H](CC(N)=O)C(=O)N[C@H]2C(=O)N[C@H]3C(=O)N[C@H](C(=O)N[C@H](C(=O)NCc4cn(CC(=O)N[C@H](C(=O)N[C@@H](CCN)C(=O)N[C@H]5CCNC(=O)[C@H]([C@@H](C)O)NC(=O)[C@H](CCN)NC(=O)[C@H](CCN)NC(=O)[C@H](CC(C)C)NC(=O)[C@@H](CC(C)C)NC(=O)[C@H](CCN)NC5=O)[C@@H](C)O)nn4)c4cc(O)cc(O)c4-c4cc3ccc4O)[C@H](O)c3ccc(c(Cl)c3)Oc3cc2cc(c3O[C@@H]2O[C@H](CO)[C@@H](O)[C@H](O)[C@H]2O[C@H]2C[C@](C)(N)[C@H](O)[C@H](C)O2)Oc2ccc(cc2Cl)[C@H]1O,broth microdilution,"VISA NRS402, tryptic soy broth","20 to 24 h, 37 °C, 0.002% polysorbate 80",16 µg/mL
